Published values gathered from unrelated publications.
Each numbered part is a random draw from the data of one study; scales do not carry over between parts. ± gives the spread as reported. Values after ≈ are worked out from the molar mass of the structure shown.

Series 1 — organism: SARS-CoV-2 Wuhan spike VSV pseudovirus; read-out: pseudovirus entry; tested at: 10 µM
`CCOC(=O)c1nc(N2CCN(c3cccc(C(F)(F)F)c3)CC2)c2ccccc2n1` gave an inhibition of 75%.
The inhibition of `Cc1ccc(C2C3=C(COC3=O)Nc3c2c(=O)[nH]c(=O)n3CC(C)C)cc1` (stereo not shown) is reported as 57%.
For `Cc1cc(C(=O)N(C)Cc2nc3ccccc3n2C)cc(S(N)(=O)=O)c1C`, the inhibition was 100%.
With `CC(=O)Nc1ccc(Cl)c(C(=O)NCCN2CCCOC2=O)c1` the inhibition was 99%.
With `O=C1/C(=C\c2csnn2)CN(C2CCCCC2)C/C1=C\c1csnn1` the inhibition was 99%.
`O=C(Cn1cc2ccccc2n1)N1CCCC(Nc2cccc(F)c2)C1` (stereo not shown) has an inhibition of 60%.
`O=C(c1ccc(Cl)cc1)N1C[C@@H](CO)[C@H](c2nc(C3CC3)no2)C1` has an inhibition of 72%.
`O=c1c(Cl)c(Cl)cnn1Cn1nnc2ccccc2c1=O` gave an inhibition of 89%.
For `CC(=O)Nc1ccc(Cl)c(C(=O)N(C)CCCN2CCCCCC2)c1`, the inhibition was 99%.
For `Cc1nc2c(c(=O)n1C)CCN(Cc1ccc(Sc3nncn3C)o1)CC2`, the inhibition was 100%.
`CCOC(=O)c1cnc(S/C=C/C(=O)c2ccc(C)cc2)nc1N` has an inhibition of 75%.
`Cc1cc(=O)[nH]c(CCNC(=O)[C@@H](O)c2ccccc2)n1` has an inhibition of 99%.
The inhibition of `CCOCC(=O)N1CC(F)(F)C[C@H]1c1nc(C(=O)NC)no1` is reported as 79%.
`O=C(O)c1csc(Cc2ccc(Cl)cc2)n1` gave an inhibition of 100%.
`Cn1c2c(c(=O)n(C)c1=O)C(c1cccc(Br)c1)C1=C(COC1=O)N2` (stereo not shown) gave an inhibition of 37%.
`Cc1nc2sccn2c1C(=O)N1CCCC(C(=O)c2cccc(C(F)(F)F)c2)C1` (stereo not shown) has an inhibition of 70%.
`CC(C)(C)NC(=O)NC(=O)Cn1ncc(Cl)c(Cl)c1=O` gave an inhibition of 69%.

Other studies, line by line
rep nsp12 RdRp: Replicase polyprotein 1ab, nsp12 RdRp (rep, Severe acute respiratory syndrome coronavirus 2, UniProt P0DTD1)
rep nsp14: Replicase polyprotein 1ab, nsp14 (rep, Severe acute respiratory syndrome coronavirus 2, UniProt P0DTD1)
rep papain-like protease: Replicase polyprotein 1ab, papain-like protease (rep, Severe acute respiratory syndrome coronavirus 2, UniProt P0DTD1)
`N#C[C@@]1(n2ccc(N)nc2=O)O[C@H](CO)[C@@H](O)[C@H]1O` gave an EC90 of 2000 ± 2300 nM (SARS-CoV-2; viral replication; Calu-3, Beta).
With `[H]/N=C(/N)N[C@H]1[C@H](O)[C@@H](O)[C@H](O[C@@H]2O[C@@H](C)[C@](O)(C=O)[C@H]2O[C@@H]2O[C@@H](CO)[C@H](O)[C@@H](O)[C@@H]2NC)[C@@H](N/C(N)=N\[H])[C@@H]1O` the MIC was 32 µg/mL (≈ 55 µM) (Mycobacterium tuberculosis; Alamar blue; 22/22, SIRE and linezolid resistant; 21 days, 37 °C).
`SLVAVTAAQSTIEHQAKTFLDKFN` gave a relative binding of 3.27 (SARS-CoV-2 spike RBD; peptide spot array; peptide; concentration not given; reference: wild-type ACE2 peptide).
`N=C(N)NCC12CC3CC(CC1C3)C2` gave an inhibition of 0% (Matrix protein 2 (Influenza A virus, UniProt P0DOF5, S31N); concentration not given, pH 5.5, cell-based).
The relative binding of `SLVRVTAAQSTIEEQAKTFLDKFN` is reported as 3.03 (SARS-CoV-2 spike RBD; peptide spot array; peptide; concentration not given; reference: wild-type ACE2 peptide).
For `CCC(CC)[C@H](NC(C)=O)[C@@H]1[C@H](O)[C@@H](C(=O)O)C[C@H]1N=C(N)N`, the IC50 was 3.4 ± 0.3 nM (neuraminidase (Influenza B virus, UniProt C0LT34, G145E)).
`CCc1cc(=O)c2c(OCC3CO3)c3ccoc3c(OC)c2o1` (stereo not shown) has an MIC of 32 µg/mL (≈ 101 µM) (Mycobacterium tuberculosis; Alamar blue; 22/22, SIRE and linezolid resistant; 21 days, 37 °C).
For `Fc1cccc(-n2cnc3c(NCc4nc5c(F)c(F)ccc5[nH]4)nc(N4CCOCC4)nc32)c1`, the BLI response was 0 nm (rep nsp12 RdRp; binding, biolayer interferometry; concentration not given).
With `O=C(NC1CCN(c2ncnc3[nH]cnc23)CC1)c1cccc(S(=O)(=O)N2CCC2)c1` the inhibition was 16.6% (rep nsp14; NSP14 enzyme activity, inhibitor; 3.125 µM).
The IC100 of `CC(C)C(=O)OC[C@H]1O[C@@H](n2ccc(NO)nc2=O)[C@H](O)[C@@H]1O` is reported as 6.24 µM (SARS-CoV-2; cytopathic effect; Vero C1008, Omicron BA.1; 48 h).
For `O=C(NC1CCN(c2ncnc3[nH]cnc23)CC1)c1cccc(S(=O)(=O)N2CCCCC2)c1`, the inhibition was 58.2% (rep nsp14; NSP14 enzyme activity, inhibitor; 12.5 µM).
`CCC(CC)COC(=O)[C@H](C)N[P@](=O)(OC[C@H]1O[C@@](C#N)(c2ccc3c(N)ncnn23)[C@H](O)[C@@H]1O)Oc1ccccc1` has an EC50 of 700 ± 600 nM (SARS-CoV-2; viral replication; Vero, Beta).
`O=c1oc2cc(O)cc(O)c2c2oc3cc(O)c(O)cc3c12` gave an activity of 20.5% (rep papain-like protease; concentration not given, C111S mutant; reference: positive control).
With `O=c1[nH]cnc2c([C@@H]3N[C@H](CO)[C@@H](O)[C@H]3O)c[nH]c12` the EC50 was roughly 650 nM (SARS-CoV-2; infectious virus yield; Vero C1008, Omicron BA.1; 48 h).
`CNC12CC3CC(CC(C3)O1)C2` has an inhibition of 0% (Matrix protein 2 (Influenza A virus, UniProt P0DOF5, V27A); concentration not given, pH 5.5, cell-based).
With `Cc1c(-c2ccnn2C)cc(C(=O)NCc2ccc(S(C)(=O)=O)cn2)c(=O)n1-c1cccc(C(F)(F)F)c1` the BLI response was -0.01 nm (rep nsp12 RdRp; binding, biolayer interferometry; concentration not given).
`Cc1cccc(C)c1OCC(=O)N[C@@H](Cc1ccccc1)[C@@H](O)C[C@H](Cc1ccccc1)NC(=O)[C@H](C(C)C)N1CCCNC1=O` has an activity of 21.6% (rep papain-like protease; concentration not given, C111S mutant; reference: positive control).

Excerpt of the above (series 1):
`Cc1nc2sccn2c1C(=O)N1CCCC(C(=O)c2cccc(C(F)(F)F)c2)C1` (stereo not shown) has an inhibition of 70%.
`O=C(Cn1cc2ccccc2n1)N1CCCC(Nc2cccc(F)c2)C1` (stereo not shown) has an inhibition of 60%.
